Measured values pooled from the literature.
Parts stem from different laboratories: compare values within a part only.

Block 1
Target: Ras GTPase-activating protein-binding protein 1, full length (G3BP1, Homo sapiens, UniProt Q13283)
Chain of UniProt Q13283 (whole entry, looked up): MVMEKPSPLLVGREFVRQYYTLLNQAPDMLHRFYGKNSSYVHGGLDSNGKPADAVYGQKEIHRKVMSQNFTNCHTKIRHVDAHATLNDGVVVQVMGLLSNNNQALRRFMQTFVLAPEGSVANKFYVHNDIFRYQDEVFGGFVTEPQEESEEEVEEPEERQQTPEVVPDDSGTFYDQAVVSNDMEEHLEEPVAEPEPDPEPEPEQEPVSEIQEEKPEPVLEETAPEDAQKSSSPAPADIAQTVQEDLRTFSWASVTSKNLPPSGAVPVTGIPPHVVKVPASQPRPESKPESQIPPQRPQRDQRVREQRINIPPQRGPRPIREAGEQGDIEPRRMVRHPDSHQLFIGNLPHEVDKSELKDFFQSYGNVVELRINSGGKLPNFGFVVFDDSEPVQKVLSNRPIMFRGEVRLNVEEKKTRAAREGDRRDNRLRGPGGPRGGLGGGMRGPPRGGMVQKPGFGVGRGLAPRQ
Technique: RNA Bind-n-Seq
Form: RNA
Sample: in vitro
Concentration: 200 nM
Setting: whole 134-nt RNA, ends assumed
Together with: 150 mM KCl
Reference: input library
Direction: higher = stronger binding
| Sequence | log2 enrichment |
| --- | --- |
| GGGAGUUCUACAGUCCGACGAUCUAACUUUAGAGGAGGAUCUGAUGGAUAUGGCAUUGGACGUGGAUUUGGGGAUGGCUAUAAUGGGUAUGGAGGAGGACCUGGAGGUGGCAAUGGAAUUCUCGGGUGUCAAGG | 0.423 |
| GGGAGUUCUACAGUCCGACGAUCACCAUGCAGGUGGGCAUCGUUGGGAAGUGGGGCAAGGGGGGGAUAGGGAGGGGGGUAACACUUUGGGAACAGGUGGUCCCAGGUCGUUUCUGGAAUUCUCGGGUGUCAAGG | 0.832 |
| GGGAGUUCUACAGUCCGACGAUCCAAGUCCUGUGCUACACAUCGUAUGUACCGAAUCGGGAAAGGGGAAAGGGGAAAGGAAAGUAUUAUGUUACGCCGUUCGGAUCUGCACUUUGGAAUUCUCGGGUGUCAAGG | -0.153 |
| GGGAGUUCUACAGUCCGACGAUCUCCUGUGCUACACAUCGUAUGUACCGAAUCGGGUUUUUGGGUUUUUUUGGGUUUUUGGGAAAGUAUUAUGUUACGCCGUUCGGAUCUGCAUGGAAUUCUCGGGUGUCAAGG | -0.257 |
| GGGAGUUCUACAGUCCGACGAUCUGGCCCUGGUGGCCUGCGGGGAGGAAGAGGUGGCCUCAUGGAUCGUGGUGGUCCCGGUGGAAUGUUCAGAGGUGGCCGUGGUGGAGACAGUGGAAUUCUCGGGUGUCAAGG | 0.135 |
| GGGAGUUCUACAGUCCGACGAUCUAACUUUAGAGGAGGAUCUGAUGGAUAUGGCAGUGGACGUGGAUUUGGGGAUGGCUAUAAUGGGUAUGGAGGAUGACCUGGAGGUGGCAAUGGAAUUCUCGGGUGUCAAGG | 0.226 |

Block 2
Target: Histone acetyltransferase KAT6A, both winged helices, GST fusion (KAT6A, Homo sapiens, UniProt Q92794, residues 1-181)
Technique: protein binding microarray
Form: double-stranded DNA, one strand shown
Sample: in vitro
Concentration: not given
Setting: 8-mer, flanks averaged, mean of 2 arrays, mostly near background
Reference: not given
Direction: higher = stronger binding
Residues (chain): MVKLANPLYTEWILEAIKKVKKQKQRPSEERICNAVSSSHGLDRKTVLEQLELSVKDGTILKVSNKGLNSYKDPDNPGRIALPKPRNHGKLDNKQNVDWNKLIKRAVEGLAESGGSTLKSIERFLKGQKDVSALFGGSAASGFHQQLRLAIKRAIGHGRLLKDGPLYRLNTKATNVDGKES
| Sequence | E-score |
| --- | --- |
| CGTGATCA | 0.0657 |
| ATGTAAGG | -0.2 |
| GATGCGCA | 0.251 |
| CAGGCCCC | -0.138 |
| AGGAGAGC | -0.103 |
| ATGAGCAA | -0.14 |
| GAGTTACA | -0.07 |

Block 3
Target: Prothrombin, mature alpha-thrombin (F2, Homo sapiens, UniProt P00734)
Technique: aptamer microarray, sandwich
Form: DNA with 2'F-ANA
Sample: in vitro
Concentration: 200 nM
Setting: whole 15-mer aptamer, many near background
Together with: Cy3 exosite-II aptamer, 400 nM
Direction: higher = stronger binding
Sequence: GGTTGGTGTGGTTGG
| Modification | mean fluorescence intensity [a.u.] |
| --- | --- |
| 2'F-ANA at 2 6 8 14 | 167 |
| 2'F-ANA at 1 2 4 5 7 12 13 | 81.1 |
| 2'F-ANA at 1 3 4 6 7 8 9 10 14 15 | 52.5 |
| 2'F-ANA at 1 2 5 9 10 11 12 14 | 43.1 |
| 2'F-ANA at 1 2 3 4 5 7 8 11 12 13 15 | 70.6 |
| 2'F-ANA at 1 5 6 7 10 15 | 45.9 |
| 2'F-ANA at 1 3 4 5 8 10 13 14 15 | 55 |
| 2'F-ANA at 3 5 8 10 11 12 | 87.3 |
| 2'F-ANA at 1 2 6 8 9 11 15 | 135 |

Further values, each from its own experiment
| Molecule | target | assay | system | conditions | scale | endpoint | value |
| --- | --- | --- | --- | --- | --- | --- | --- |
| PhoQ, residues 284 288 289 292 302 303 SCCLKL | PhoP, residues 12 14 15 18 19 AQCLL (Escherichia coli, UniProt P23836) | Sort-seq, measured: YFP reporter | E. coli | PhoQ-PhoP variant library, together with: 10 µM Mg2+ | reference: high Mg2+ state, higher = stronger signaling | fold induction | 0.732 |

Excerpt of the above (block 3):
| Modification | mean fluorescence intensity [a.u.] |
| --- | --- |
| 2'F-ANA at 1 2 5 9 10 11 12 14 | 43.1 |
| 2'F-ANA at 2 6 8 14 | 167 |
| 2'F-ANA at 1 2 4 5 7 12 13 | 81.1 |
